Measured values pooled from the literature.
Numbered parts are unrelated; each lists some results of a single study.

Sample 1
Target: Interferon regulatory factor 5, full length, phosphomimetic (IRF5, Homo sapiens, UniProt Q13568-2, residues 1-514, K96S/S451D/S453D/S456D/S462D)
Method: protein-binding microarray
Form: double-stranded DNA, one strand shown
Matrix: in vitro
Concentration: 250 nM
Notes: 60-bp whole probe
Together with: salmon DNA 0.4 mg/ml
Reference: random background probes
Direction: higher = stronger binding
All sequences stand within: GCCTAGCAC … GTCTTGATTCGCTTGACGCTGCTG
Sequence	log fluorescence
CTGTTCTGCAGACTTCTGTCGTGCTAG	-0.113 z-score
TCAACTCTGTTTTCGCTTACTGTGCTA	3.74 z-score
GACGGACTGCTTCTCCTGATGTGCTAG	-0.571 z-score
TCAAGTCCCCTCTTCTGACTGTGCTAG	-0.473 z-score
GACGGTATCCGGTTTCGGGACGTGCTA	2.88 z-score
AACGGTCTCGGTATCGGGACGTGCTAG	1.26 z-score
TCATTCTTGGGACTCACACTGTGCTAG	-0.046 z-score
GACGGTTTCGGTAGCGGGACGTGCTAG	9.01 z-score
TTAGGTCTCCTACTGCTTAAGTGCTAG	-0.207 z-score
TTAGGTTTCGAACTGGGTTAGTGCTAG	3.29 z-score
GATTATAAAATGTGTGTTTGGTGCTAG	0.423 z-score
TCAACCTTGAACTTCGGACTGTGCTAG	-0.0629 z-score
CTCTTCTTTTTTTTCTTTAAGTGCTAG	1.15 z-score
CCCTAATTCTGATTGGATAAGTGCTAG	0.043 z-score
GACGGTTTCCTTCTCCTGATGTGCTAG	0.871 z-score
TTAGATATCAGTTGCGATTAGTGCTAG	2.49 z-score

Sample 2
Target: Histone acetyltransferase KAT6A, winged helix 2, GST fusion (KAT6A, Homo sapiens, UniProt Q92794, residues 85-181)
Method: protein binding microarray
Form: double-stranded DNA, one strand shown
Matrix: in vitro
Concentration: not given
Notes: 8-mer, flanks averaged, mean of 2 arrays, mostly near background
Reference: not given
Direction: higher = stronger binding
Construct (chain): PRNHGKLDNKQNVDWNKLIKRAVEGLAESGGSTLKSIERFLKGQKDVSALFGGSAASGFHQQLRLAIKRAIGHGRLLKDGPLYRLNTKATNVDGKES
Sequence	E-score
CGAGAGTC	-0.0233
ACTGTACG	-0.257
CGTGCTTA	0.0717
CTCCCATA	-0.251
CCATGTGC	-0.0248
ATAGCACA	0.072
TACATTGA	-0.0285
ATGGGAAT	-0.157
GGGGTCTA	-0.0186
AACCAATT	0.067
CCCTACCG	0.00831
GCCCTCCC	0.134
GGGCCTTA	-0.141
AAACGTGG	-0.259
CTGGACAA	-0.149
ATTCCGTC	-0.175
CTTCTGCC	0.145
AGAACCAA	-0.11
CGGTGACC	-0.0242
AGAAATCA	0.0464
GGTCCCAA	0.0336
CATGGCAG	0.155
CTCGATCC	0.0315
ACGGCTAG	-0.112
ATGATCCA	-0.0828

Sample 3
Target: RNA binding protein fox-1 homolog 2, RRM domain, GST-SBP tag (RBFOX2, Homo sapiens, UniProt O43251-10, residues 100-194)
Method: RNA Bind-n-Seq
Form: RNA
Matrix: in vitro
Concentration: 365 nM
Notes: natural RNA segment, single round, ends assumed
Reference: no-protein control
Direction: higher = stronger binding
Construct (chain): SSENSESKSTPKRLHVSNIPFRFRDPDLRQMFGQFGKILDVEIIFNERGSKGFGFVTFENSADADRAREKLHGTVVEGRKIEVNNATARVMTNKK
Sequence	RBNS enrichment (R)
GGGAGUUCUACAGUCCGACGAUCGCUCUAAUAAAAAUGAAAGCUCUCUGACAAGAAAUAGUUCUGGAUGGUUUGAAGAUCUGCGGGGAAAAAUAAGUGUGCACCUGAGACCUUCAGUUAGUCUUUUAUUUAUUUGGAAUUCUCGGGUGCCAA	0.965
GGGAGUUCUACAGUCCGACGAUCUCAUCCCCUUUGUCCUUUUGGGAAGCAAGUAUCUAUUCCAGUCUCAAGUCCUGCAGUUGCUGGAGCGCUUACGCACCUGAGCCCUUUGUGUCCUGGGGGAGAGAUGGCCAUGGAAUUCUCGGGUGCCAA	0.616
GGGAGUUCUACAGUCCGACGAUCAGAUUUCUGAUUUUAUGUAAAAUUUUGCCUAAUACAUUAAAGCAGUCACUUUUCCUGUGCUGUUUCAUUCACUGUCUCCGUCCCCUUUGUCCCCUAAGCAUCACCUGCCCUGGAAUUCUCGGGUGCCAA	0.619
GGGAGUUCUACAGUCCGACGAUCACUGUAAGCUUUUAAGAAAAACAAAGUUUUAAACGAAAUACUGCUCUGUCCAGAGGCUUUAAAACUGGUGCAAUUACAGCAAAAAGGGAUUCUGUAGCUUUAACUUGUAAUGGAAUUCUCGGGUGCCAA	0.745
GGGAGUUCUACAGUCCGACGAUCGUCCAGCCGGUCCAAGCACAUGGCCUCCCAUCUGGGAGAGCCCACUGUCCCACUCCCACAUGUCUGGGCACCUGCCCUGGGCUGAGGCCAGGCUGCUCCAGGGGCCUCCUUGGAAUUCUCGGGUGCCAA	0.239
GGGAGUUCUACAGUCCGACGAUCUCAGUCUAAAAAACGAAGGGAUGUGCAACUGCAGCUCUUUAAGAAGUUUUUUUUUUUUAGCUUCUAGGGUAAAGAUAAAUUCAGAAAUGCUCUAAGCUACCAAAGUUAUUUGGAAUUCUCGGGUGCCAA	0.411
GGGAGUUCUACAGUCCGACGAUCCCUGCCAACACUAAUGUUCCCCACACUAUCUUUGUACAUUUCAGAGGUUUGGUCUUCUGGGUGGUGUCCGUUUCCCCUCACUGUCAGGGAAAGCUGGAUCCCUCUGGCUGUGGAAUUCUCGGGUGCCAA	0.335
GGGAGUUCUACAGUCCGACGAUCAGCUGGACCAUCGUCCCUGCUUCUCUUAUGAUCGCCCCACCUCAUUUCCAUUUCAGUCUGGGGACCCCAUUUCUCCCUCCUUUCCAACUUCCUUCCUUUCUUGUCCUGUUUGGAAUUCUCGGGUGCCAA	0.921

Sample 4
Target: Ras GTPase-activating protein-binding protein 1, full length (G3BP1, Homo sapiens, UniProt Q13283)
UniProt Q13283, sequence (whole entry, looked up): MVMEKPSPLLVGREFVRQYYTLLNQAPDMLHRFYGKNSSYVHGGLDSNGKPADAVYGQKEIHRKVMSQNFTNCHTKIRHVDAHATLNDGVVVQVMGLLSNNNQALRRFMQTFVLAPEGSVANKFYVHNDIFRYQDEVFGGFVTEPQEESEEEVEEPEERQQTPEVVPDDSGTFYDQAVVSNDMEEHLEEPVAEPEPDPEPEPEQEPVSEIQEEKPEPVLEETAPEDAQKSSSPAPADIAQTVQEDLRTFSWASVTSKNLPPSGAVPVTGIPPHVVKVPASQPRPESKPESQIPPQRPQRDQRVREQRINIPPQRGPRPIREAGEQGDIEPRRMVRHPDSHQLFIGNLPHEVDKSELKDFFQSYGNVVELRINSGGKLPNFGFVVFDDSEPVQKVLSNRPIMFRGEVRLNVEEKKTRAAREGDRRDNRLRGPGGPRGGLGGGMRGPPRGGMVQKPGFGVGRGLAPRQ
Method: RNA Bind-n-Seq
Form: RNA
Matrix: in vitro
Concentration: 200 nM
Notes: whole 134-nt RNA, ends assumed
Together with: 150 mM LiCl
Reference: input library
Direction: higher = stronger binding
Each molecule: 7-deaza-guanosine replaces G
Sequence	log2 enrichment
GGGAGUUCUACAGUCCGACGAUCCACAGACAACACGCACCCACACAGACACUGAGGGAAGGGGUUGGGAUGGGGACAGGGUGCACAGCAGGGCGGGGUAGGACCCCAGCCCCUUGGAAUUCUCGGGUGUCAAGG	0.41
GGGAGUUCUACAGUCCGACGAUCAAGUCCUGUGCUACACAUCGUAUGUACCGAAUCGGUUUUUUUGGAAAAAGGUUUGGAAAGUAUUAUGUUACGCCGUUCGGAUCUGCACUUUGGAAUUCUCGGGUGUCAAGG	-3.27
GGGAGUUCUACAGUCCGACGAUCCAAGUCCUGUGCUACACAUCGUAUGUACCGAAUCAAAUUUAAACCCAAAUUUAAAAAAGUAUUAUGUUACGCCGUUCGGAUCUGCACUUCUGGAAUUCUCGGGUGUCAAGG	-0.887
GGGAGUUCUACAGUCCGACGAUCCCUCAAGUCCUGUGCUACACAUCGUAUGUACCGAAUCGGUUUGGAAAGGAGGAAAGUAUUAUGUUACGCCGUUCGGAUCUGCACUUCCAGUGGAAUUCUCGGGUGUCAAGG	0.0293
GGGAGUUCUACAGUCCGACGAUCUCUCAGCAGGCGCAUCUACACUAGUGACCUGAGGAGAGAAACCCUAACCCCACAAUGGCUGCAUCUUCUCUGAAGACGAGACUGAUGCUCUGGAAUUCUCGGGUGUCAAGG	1.23
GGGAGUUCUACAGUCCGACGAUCCUGUGCUACACAUCGUAUGUACCGAAUCGGGCCCCCCCGGGGCCCCCCCGGCCCCCCCGGGGAAAGUAUUAUGUUACGCCGUUCGGAUCUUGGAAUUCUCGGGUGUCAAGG	-0.609
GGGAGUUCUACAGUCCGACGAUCUUGGGCUGCCCAUCACCGUGGCCCAUGUGGAUGGCCAAACCCACAUGUUAUUUGGCUCUGACCGGAUGGAGCUGCUGGCGCACCUGCUGGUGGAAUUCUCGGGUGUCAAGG	0.0327
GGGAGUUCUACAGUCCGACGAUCAAACUUUAGAGGAGGAUCUGAUGGAUAUGGCAGUGGACGUGGAUUUGGGGAUGGCUAUAAUGGGUAUGGAGGAGGACCUGGAGGUGGCAAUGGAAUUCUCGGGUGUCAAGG	-0.18

For quick reference, copied from above (sample 1):
Sequence	log fluorescence
TTAGGTCTCCTACTGCTTAAGTGCTAG	-0.207 z-score
TTAGGTTTCGAACTGGGTTAGTGCTAG	3.29 z-score
CTGTTCTGCAGACTTCTGTCGTGCTAG	-0.113 z-score
CTCTTCTTTTTTTTCTTTAAGTGCTAG	1.15 z-score
